Results gathered from unrelated publications.
Each line is one published result; not all experiments were run side by side. ± gives the spread as reported. Square brackets hold non-standard residues; d marks the D form. Where no end group is shown, it is not given here. Ends that are not written are not given here. The star is where a group is joined. * marks the point of attachment.
B1: dksA (Escherichia coli, UniProt P0ABS1); sequence looked up; chain MQEGQNRKTSSLSILAIAGVEPYQEKPGEEYMNEAQLAHFRRILEAWRNQLRDEVDRTVTHMQDEAANFPDPVDRAAQEEEFSLELRNRDRERKLIKKIEKTLKKVEDEDFGYCESCGVEIGIRRLEARPTADLCIDCKTLAEIREKQMAG
B2: acrA (Escherichia coli, UniProt P0AE06); N-terminal lipid at C25; chain CDDKQAQQGGQQMPAVGVVTVKTEPLQITTELPGRTSAYRIAEVRPQVSGIILKRNFKEGSDIEAGVSLYQIDPATYQATYDSAKGDLAKAQAAANIAQLTVNRYQKLLGTQYISKQEYDQALADAQQANAAVTAAKAAVETARINLAYTKVTSPISGRIGKSNVTEGALVQNGQATALATVQQLDPIYVDVTQSSNDFLRLKQELANGTLKQENGKAKVSLITSDGIKFPQDGTLEFSDVTVDQTTGSITLRAIFPNPDHTLLPGMFVRARLEEGLNPNAILVPQQGVTRTPRGDATVLVVGADDKVETRPIVASQAIGDKWLVTEGLKAGDRVVISGLQKVRPGVQVKAQEVTADNNQQAASGAQPEQSKS
B3: FGL1 fibrinogen-like domain 58-312 (Homo sapiens, UniProt Q08830); sequence looked up; chain NEVQFLDKGDENTVIDLGSKRQYADCSEIFNDGYKLSGFYKIKPLQSPAEFSVYCDMSDGGGWTVIQRRSDGSENFNRGWKDYENGFGNFVQKHGEYWLGNKNLHFLTTQEDYTLKIDLADFEKNSRYAQYKNFKVGDEKNFYELNIGEYSGTAGDSLAGNFHPEVQWWASHQRMKFSTWDRDHDNYEGNCAEEDQSGWWFNRCHSANLNGVYYSGPYTAKTDNGIVWYTWHGWWYSLKSVVMKIRPNDFIPNVI
Chain of UniProt Q86WV6 (whole entry, looked up): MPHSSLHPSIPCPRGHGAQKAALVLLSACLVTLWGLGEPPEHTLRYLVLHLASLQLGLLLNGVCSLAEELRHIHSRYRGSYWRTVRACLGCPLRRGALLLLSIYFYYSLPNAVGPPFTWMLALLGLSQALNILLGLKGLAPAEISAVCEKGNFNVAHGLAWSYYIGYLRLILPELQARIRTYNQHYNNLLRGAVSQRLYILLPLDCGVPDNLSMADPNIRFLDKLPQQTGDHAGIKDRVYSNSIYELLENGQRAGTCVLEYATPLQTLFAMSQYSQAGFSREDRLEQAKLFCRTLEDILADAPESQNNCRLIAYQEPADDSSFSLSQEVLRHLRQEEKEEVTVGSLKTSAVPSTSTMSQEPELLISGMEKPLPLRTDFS
Chain of UniProt P01317 (whole entry, looked up): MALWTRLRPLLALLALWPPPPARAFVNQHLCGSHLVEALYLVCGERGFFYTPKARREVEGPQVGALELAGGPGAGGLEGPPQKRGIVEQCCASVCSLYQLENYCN
Chain of UniProt P29590 (whole entry, unmodified, looked up): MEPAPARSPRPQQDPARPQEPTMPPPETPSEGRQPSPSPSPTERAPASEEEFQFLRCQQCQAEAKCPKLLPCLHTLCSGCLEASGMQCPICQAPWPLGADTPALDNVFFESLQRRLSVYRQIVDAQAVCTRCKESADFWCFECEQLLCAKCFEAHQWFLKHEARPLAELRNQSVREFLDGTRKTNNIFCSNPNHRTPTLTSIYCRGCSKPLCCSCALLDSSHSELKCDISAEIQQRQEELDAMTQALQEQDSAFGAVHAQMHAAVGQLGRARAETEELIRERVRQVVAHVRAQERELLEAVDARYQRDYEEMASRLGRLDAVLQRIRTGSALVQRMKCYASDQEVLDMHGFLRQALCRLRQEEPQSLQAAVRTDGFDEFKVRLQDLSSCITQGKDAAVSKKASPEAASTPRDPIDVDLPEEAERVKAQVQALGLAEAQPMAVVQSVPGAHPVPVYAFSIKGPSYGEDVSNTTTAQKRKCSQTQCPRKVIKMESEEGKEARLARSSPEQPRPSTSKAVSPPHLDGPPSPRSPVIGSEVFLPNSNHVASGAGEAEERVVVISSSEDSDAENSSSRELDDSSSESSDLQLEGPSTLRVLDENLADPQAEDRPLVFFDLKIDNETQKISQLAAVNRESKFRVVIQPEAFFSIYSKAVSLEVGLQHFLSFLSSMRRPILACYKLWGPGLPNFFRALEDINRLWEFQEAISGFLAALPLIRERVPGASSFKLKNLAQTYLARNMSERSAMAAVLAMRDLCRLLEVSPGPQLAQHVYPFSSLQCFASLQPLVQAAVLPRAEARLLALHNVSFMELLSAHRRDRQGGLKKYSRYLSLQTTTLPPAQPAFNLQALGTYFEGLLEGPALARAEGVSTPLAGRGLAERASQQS
Chain of UniProt P23946 (whole entry, looked up): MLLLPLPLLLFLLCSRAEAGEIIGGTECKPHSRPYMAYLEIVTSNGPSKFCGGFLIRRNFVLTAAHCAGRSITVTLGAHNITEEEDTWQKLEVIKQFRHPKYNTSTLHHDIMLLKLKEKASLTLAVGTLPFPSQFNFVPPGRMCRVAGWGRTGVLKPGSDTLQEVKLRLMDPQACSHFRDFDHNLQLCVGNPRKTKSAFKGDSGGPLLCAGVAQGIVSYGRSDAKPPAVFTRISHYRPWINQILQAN
Chain of UniProt P0A8V2 (whole entry, looked up): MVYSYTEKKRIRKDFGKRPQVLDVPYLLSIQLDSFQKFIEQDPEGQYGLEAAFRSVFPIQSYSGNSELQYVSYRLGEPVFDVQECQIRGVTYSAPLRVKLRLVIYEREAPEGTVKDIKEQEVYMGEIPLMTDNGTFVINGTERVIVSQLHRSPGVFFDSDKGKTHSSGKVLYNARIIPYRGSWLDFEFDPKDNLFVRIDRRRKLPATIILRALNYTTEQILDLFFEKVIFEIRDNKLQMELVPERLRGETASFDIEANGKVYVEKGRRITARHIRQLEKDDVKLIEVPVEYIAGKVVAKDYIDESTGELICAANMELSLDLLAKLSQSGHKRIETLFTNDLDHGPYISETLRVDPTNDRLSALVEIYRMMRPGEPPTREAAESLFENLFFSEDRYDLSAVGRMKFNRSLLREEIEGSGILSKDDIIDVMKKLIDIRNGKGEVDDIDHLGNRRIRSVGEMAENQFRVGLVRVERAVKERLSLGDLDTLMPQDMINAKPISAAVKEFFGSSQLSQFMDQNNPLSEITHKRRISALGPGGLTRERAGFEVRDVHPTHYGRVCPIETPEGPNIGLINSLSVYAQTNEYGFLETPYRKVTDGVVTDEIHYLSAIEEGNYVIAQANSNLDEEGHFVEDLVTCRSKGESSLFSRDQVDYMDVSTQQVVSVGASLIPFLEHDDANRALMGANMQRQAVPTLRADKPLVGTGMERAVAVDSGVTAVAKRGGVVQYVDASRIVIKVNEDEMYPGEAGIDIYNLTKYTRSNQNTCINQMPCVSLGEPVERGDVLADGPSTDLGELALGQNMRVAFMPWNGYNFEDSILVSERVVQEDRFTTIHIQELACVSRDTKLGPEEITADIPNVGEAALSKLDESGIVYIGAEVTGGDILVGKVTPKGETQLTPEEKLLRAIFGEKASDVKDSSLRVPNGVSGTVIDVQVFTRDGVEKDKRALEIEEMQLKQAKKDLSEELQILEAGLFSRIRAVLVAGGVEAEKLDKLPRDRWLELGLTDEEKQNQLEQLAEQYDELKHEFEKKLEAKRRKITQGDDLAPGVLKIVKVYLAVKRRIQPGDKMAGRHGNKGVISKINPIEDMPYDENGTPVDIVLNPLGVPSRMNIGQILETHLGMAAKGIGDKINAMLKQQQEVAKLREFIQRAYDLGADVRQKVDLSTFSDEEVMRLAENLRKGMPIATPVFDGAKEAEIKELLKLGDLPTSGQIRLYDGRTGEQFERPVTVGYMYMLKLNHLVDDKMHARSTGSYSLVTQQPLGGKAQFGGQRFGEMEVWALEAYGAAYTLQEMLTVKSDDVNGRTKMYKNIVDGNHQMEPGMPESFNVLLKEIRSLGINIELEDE
Chain of UniProt P31224 (whole entry, unmodified, looked up): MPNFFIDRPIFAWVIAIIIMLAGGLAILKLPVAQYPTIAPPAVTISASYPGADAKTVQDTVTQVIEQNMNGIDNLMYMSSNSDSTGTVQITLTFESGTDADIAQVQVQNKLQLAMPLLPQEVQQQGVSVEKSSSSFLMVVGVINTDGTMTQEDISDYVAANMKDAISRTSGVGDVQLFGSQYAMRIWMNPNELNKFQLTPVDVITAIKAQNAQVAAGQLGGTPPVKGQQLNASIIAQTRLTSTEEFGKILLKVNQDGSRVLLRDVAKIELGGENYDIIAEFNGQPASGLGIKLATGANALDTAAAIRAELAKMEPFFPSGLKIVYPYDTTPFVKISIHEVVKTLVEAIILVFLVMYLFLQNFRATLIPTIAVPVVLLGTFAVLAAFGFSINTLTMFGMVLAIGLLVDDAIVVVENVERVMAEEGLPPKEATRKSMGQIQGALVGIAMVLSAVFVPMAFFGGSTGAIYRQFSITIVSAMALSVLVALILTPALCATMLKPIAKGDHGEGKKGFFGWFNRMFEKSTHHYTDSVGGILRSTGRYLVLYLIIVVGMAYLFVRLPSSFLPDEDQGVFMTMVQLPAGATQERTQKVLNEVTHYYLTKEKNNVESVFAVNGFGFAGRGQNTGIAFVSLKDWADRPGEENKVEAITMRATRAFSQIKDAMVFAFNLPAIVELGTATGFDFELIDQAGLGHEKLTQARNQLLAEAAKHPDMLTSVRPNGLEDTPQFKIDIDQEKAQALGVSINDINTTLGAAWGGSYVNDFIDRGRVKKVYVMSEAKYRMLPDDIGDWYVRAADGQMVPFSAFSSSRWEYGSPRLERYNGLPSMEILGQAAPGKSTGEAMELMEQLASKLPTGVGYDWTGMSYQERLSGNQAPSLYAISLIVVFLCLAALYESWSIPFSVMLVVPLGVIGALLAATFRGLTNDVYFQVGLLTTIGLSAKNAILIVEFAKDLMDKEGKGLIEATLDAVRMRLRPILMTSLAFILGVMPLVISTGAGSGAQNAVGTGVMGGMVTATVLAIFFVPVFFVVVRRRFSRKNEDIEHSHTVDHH
Chain of UniProt P11142 (whole entry, looked up): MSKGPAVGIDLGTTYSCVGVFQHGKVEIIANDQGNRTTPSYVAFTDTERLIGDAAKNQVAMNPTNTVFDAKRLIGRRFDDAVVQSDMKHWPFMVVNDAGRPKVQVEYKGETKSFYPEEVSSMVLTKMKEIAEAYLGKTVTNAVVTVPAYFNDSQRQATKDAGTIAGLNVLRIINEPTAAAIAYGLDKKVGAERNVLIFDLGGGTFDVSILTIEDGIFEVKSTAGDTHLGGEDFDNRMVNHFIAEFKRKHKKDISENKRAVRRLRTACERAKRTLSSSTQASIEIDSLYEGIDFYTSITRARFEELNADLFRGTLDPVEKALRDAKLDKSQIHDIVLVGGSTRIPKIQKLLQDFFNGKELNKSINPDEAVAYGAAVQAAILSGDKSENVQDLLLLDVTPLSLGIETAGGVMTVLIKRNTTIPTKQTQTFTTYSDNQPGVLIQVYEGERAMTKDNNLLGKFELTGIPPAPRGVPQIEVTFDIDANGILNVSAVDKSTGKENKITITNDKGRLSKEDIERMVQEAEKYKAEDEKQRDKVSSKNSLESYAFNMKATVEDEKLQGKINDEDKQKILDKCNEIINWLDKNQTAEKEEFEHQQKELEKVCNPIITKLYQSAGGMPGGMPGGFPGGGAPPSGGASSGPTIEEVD

Substance | tested on | test | test system | setting | how to read | quantity | result
ARTKQTARKSTGGKAPRK (histone H3 residues 1-18) | KDM4A 890-1031 (Homo sapiens, UniProt O75164-1) | displacement of biotinylated peptide, competitor, AlphaScreen | peptide |  |  | EC50 | 89 µM
B1 (dksA) | rpoB β subunit 1-1342 (Escherichia coli, UniProt P0A8V2) | crystal structure |  | without ppGpp |  | binding | binds
protein (Streptomyces exfoliatus, UniProt O87916) | PBP2a residues 41-end (Staphylococcus aureus) | SPR |  |  |  | Kd | 1.5 µM
histone H3 fragment, K36me3 (sequence not shown) | MORF4L1 fragment (Homo sapiens) | NMR titration |  | pH 7.5, 25 °C |  | Kd | 580 ± 180 µM
RmS-6, glycosylated (Rhipicephalus microplus) | F9 factor IXa (Bos taurus) | chromogenic substrate hydrolysis, inhibitor |  | 1 µM |  | protease inhibition | < 20%
B2 (acrA) | acrB C493S/C887S/S1043C (Escherichia coli, UniProt P31224) | SPR |  | two-state model, reverse second step |  | k-2 | 0.00111 s⁻¹
TBK1 fragment L8A (Homo sapiens) | STING1 (Homo sapiens, UniProt Q86WV6) | IFN-β luciferase reporter | TBK1 KO HEK293T | with: cGAMP | relative to: wild-type TBK1, higher = more reduction | reduction of IFN-β reporter | > 60%
{FITC}-GFID[pS]D[pT]DVEEE-NH2 (peptide; N-terminal FITC, pS5, pT7, C-terminal amide; FITC = O=C1OC2(c3ccc(O)cc3Oc3cc(O)ccc32)c2ccc(NC(=S)*)cc21; pS = N[C@@H](COP(=O)(O)O)C(=O)O; pT = C[C@@H](OP(=O)(O)O)[C@H](N)C(=O)O) | TOPBP1 641-746 K704A (Homo sapiens, UniProt Q92547) | fluorescence polarisation | peptide | pH 7.5, NaCl 150 mM |  | Kd | 59 ± 6 µM
VQIVYK | Insulin, B chain (INS, Bos taurus, UniProt P01317) | insulin aggregation |  | pH 7, 37 °C, with: DTT |  | IC50 | ~50 µg/mL
RmS-3, glycosylated (Rhipicephalus microplus) | F12 factor XIIa (Homo sapiens) | chromogenic substrate hydrolysis, inhibitor |  | 1 µM |  | protease inhibition | < 20%
QATFMVFQALAQYQKDAP (C3 1270-1287 (Homo sapiens); N- and C-terminal capped) | HLA-DRA/HLA-DRB1*04:01 (Homo sapiens) | competition with ligand, ELISA | peptide |  |  | IC50 | 9.64 µM
SGAGEAEERVVVIDDDEDDDAENSSSRY (PML 547-573 S560D/S561D/S562D/S565D (Homo sapiens, UniProt P29590)) | SUMO2 2-93 C48A (Homo sapiens, UniProt P61956) | ITC | peptide | pH 7.4, 25 °C |  | Kd | 5.3 ± 1 µM
Z13e1 Fab (human) | env peptide residues 668-683 (HIV-1) | ITC |  | 298 K, single-site model |  | ΔH | -12.7 kcal/mol
B3 | LAG3 extracellular domain M171I (Homo sapiens) | SPR |  | 20 °C |  | Kd | 1.1 µM
{FITC}-FDDDDYDTDF (BLM 291-300 (Homo sapiens, UniProt P54132); N-terminal FITC; FITC = O=C1OC2(c3ccc(O)cc3Oc3cc(O)ccc32)c2ccc(NC(=S)*)cc21; sequence looked up) | MCM6 708-821 C721S (Homo sapiens, UniProt Q14566) | fluorescence polarisation | peptide | pH 6.5, NaCl 50 mM |  | Kd | 97.3 ± 3.8 µM
RmS-17, glycosylated (Rhipicephalus microplus) | CMA1 (Homo sapiens, UniProt P23946) | chromogenic substrate hydrolysis, inhibitor |  | 1 µM |  | protease inhibition | < 20%
Ac-NRLLLTG (NRLLLTG; N-acetyl) | HSPA8 395-509 (Homo sapiens, UniProt P11142) | competition with tracer, fluorescence polarisation | peptide | with: FAM-Cdk4-2 tracer |  | Ki | 0.56 ± 0.05 µM
